Experimental data gathered from unrelated publications.
Each numbered part is a random draw from the data of one study; scales do not carry over between parts. Positions count from the first letter of the parent shown.
UniProt O95747, sequence (whole entry, looked up): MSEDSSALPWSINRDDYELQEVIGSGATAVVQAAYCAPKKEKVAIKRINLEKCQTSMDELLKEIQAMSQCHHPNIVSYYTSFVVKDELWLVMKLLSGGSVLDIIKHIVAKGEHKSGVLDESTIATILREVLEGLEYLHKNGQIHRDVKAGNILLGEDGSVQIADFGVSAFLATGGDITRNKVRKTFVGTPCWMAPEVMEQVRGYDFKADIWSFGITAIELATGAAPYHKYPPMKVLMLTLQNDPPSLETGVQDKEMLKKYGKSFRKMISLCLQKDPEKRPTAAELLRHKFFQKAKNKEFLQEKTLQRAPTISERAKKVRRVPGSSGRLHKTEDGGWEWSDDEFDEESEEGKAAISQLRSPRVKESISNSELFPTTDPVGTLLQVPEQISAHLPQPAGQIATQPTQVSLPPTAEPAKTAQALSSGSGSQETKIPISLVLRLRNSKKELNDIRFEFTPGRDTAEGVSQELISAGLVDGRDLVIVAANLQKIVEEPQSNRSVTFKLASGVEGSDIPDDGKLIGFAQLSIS

Sample 1
Target: CCNA1, cyclin fold, Cln2 fusion (human)
Method: yeast growth competition, sequencing
Sample: yeast
Setting: weak parent motif
Baseline: not given
Direction: higher = stronger binding
Parent: MASTL docking peptide (human); PMIAKNLMCELDE
`PNIAKNLMCELDE [M2N]` — result for “normalised enrichment score”: -0.0314.
Under “normalised enrichment score”, `PMIAKNLMCELME [D12M]` is recorded as 0.317.
`PMIRKNLMCELDE [A4R]`: “normalised enrichment score” 0.419.
Under “normalised enrichment score”, `PMIAKNLMCELAE [D12A]` is recorded as 0.121.
`PMIAKNLMCEHDE [L11H]`: “normalised enrichment score” 0.136.
`PMIAKYLMCELDE [N6Y]`: “normalised enrichment score” 0.0327.
`PMIAKNPMCELDE [L7P]` — result for “normalised enrichment score”: 0.0694.
`PMIAKNLMVELDE [C9V]`: “normalised enrichment score” -0.14.

Sample 2
Target: RNA binding protein fox-1 homolog 2, RRM domain, GST-SBP tag (RBFOX2, Homo sapiens, UniProt O43251-10, residues 100-194)
Method: RNA Bind-n-Seq
Molecule type: RNA
Sample: in vitro
Tested at: 365 nM
Setting: natural RNA segment, single round, ends assumed
Baseline: no-protein control
Direction: higher = stronger binding
Constant ends, left off below: GGGAGUUCUACAGUCCGACGAUC … UGGAAUUCUCGGGUGCCAA
`UUGGGCUUUCUGUUGAAUGAAUCAACAAACCACAAUACUUCCUGGGACCUUUUGUACUUUAUUUGAACUAUGAGUCUUUAAUUUUUCCUGAUGAUGGUGGCUGUAAUAUG`: “RBNS enrichment (R)” 0.509.
`UGAGGUGGGCUCCCUUCUUUGUAGAUGCCUUUCCUCUCGUAAUAACAACUCCUUGCCCCCAGGGCUCUGGCUGCCAGGGCCUACUGCUGCUUUCCUGGGAAGCCGCAAGU`: “RBNS enrichment (R)” 0.903.
`AGGACCUCCCACAACCUGGUUCCCCACACAUCCAUAGUUCUGCCUCCCCAGCUUCUCCUCCCCAGUUGUAAAUAGUAUUUAUUAGCUUGCCGAGGCUUCCUGCUAGCAAC`: “RBNS enrichment (R)” 0.654.
Under “RBNS enrichment (R)”, `UUUCAAUAUUUGGGUAAUAUUAGAAAGAUUCUUCCCACAGGGAAGAACUAGCAAGUGUCCCAAUUUUUUCCAAACGUUGGGGAGGGGAAAAUUCACUGUAUCAUGAAACC` is recorded as 0.486.
`CACUGUUGUGGCUUUUGACUUGGGGUGGUCCAGUGCCAGGCUGGAAGUAAGCACAGCCCAUCUCCUGUUCACAUUCUCUAGACCGUCAUCACCUUUGCCCUGCUCUGGGG` — result for “RBNS enrichment (R)”: 1.22.
Under “RBNS enrichment (R)”, `UAGUAGCAAUAGCAGAGAGAGCUGUAAAUUCUCAGGUCCUCCUAGACUUAACCAAAUCUGAGUGCCCCGGAUGGAGUUGAGCUCUGCAGGUCAGCUAACUCUAGCUCAGG` is recorded as 0.428.
Under “RBNS enrichment (R)”, `GCUUGAGCUACAAUCAGGAGGGAAAUUGGAAGGAUUAGCAGCUUUUAAAAAUGUUUAAAUAUUUUGCUUUGCUAAUGUGCUGAUCCGCACUAACUCAUCUUUGCAAAAGG` is recorded as 0.46.
For `ACAUCAUUAAAGAUCUAAAUACAAAGGAUAUACAGUCUUGAAUCUAAAAUAAUUUGCUAACUAACUAUUUUGAUUCUUCAGAGAGAACUACUAAUAAAAAUCUAAAAGGU`, “RBNS enrichment (R)” read 0.416.

Sample 3
Target: Interferon regulatory factor 7, full length, phosphomimetic (IRF7, Homo sapiens, UniProt Q92985, residues 1-503, S471D/S472D/S475D/S476D/S477D/S483D/S484D/S487D)
Method: protein-binding microarray
Molecule type: double-stranded DNA, one strand shown
Sample: in vitro
Tested at: 2200 nM top
Setting: 60-bp whole probe
Together with: salmon DNA 0.4 mg/ml
Baseline: random background probes
Direction: higher = stronger binding
Constant ends, left off below: GCCTAGCAC … GTCTTGATTCGCTTGACGCTGCTG
Target sequence (chain): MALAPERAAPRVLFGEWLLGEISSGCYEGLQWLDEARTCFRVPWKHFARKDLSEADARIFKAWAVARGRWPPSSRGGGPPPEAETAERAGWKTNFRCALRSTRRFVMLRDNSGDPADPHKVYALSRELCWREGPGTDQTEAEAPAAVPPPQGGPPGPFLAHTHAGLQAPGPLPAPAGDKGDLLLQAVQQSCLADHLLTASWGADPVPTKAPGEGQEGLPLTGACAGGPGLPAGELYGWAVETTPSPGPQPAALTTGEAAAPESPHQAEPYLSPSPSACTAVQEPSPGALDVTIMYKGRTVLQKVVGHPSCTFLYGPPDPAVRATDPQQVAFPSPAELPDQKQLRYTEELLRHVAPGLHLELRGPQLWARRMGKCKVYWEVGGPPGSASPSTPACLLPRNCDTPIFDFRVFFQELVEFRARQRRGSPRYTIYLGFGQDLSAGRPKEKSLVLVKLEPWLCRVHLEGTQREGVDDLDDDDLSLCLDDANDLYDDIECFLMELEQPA
`GACGGTTTCGAGTTTCGGGACGTGCTA` — result for “fitted relative affinity”: 8.19 z-score.
`GAAGGTCTCGGTTTCGGGACGTGCTAG`: “fitted relative affinity” 3.93 z-score.
Under “fitted relative affinity”, `TTAGGTCTCCTTATCTTTTAGTGCTAG` is recorded as 0.641 z-score.
For `TTAGGTATCGACTAGCGGTTAGTGCTA`, “fitted relative affinity” read -0.136 z-score.
For `TCAGATCTGCCGTCCCACTCAGTGCTA`, “fitted relative affinity” read 1.09 z-score.
`CTAGGTATCGACTTTCGGTTAGTGCTA`: “fitted relative affinity” 5.48 z-score.
Under “fitted relative affinity”, `TTAGGTATCGACAGTGGGTTAGTGCTA` is recorded as -0.205 z-score.
`TTAGGACTGGCTCTCGGTTAGTGCTAG` — result for “fitted relative affinity”: -0.0898 z-score.

Mixed results
For CCC(=O)N[C@@H]1CC[C@H](C(=O)N(C)c2ccc(-c3nc4ccccc4o3)cc2)C1, the remaining binding was 100% (Serine/threonine-protein kinase OSR1 (OXSR1, Homo sapiens, UniProt O95747); cell-free assay, competition with immobilised ligand; 1 µM).

A few entries again (sample 3):
For `TTAGGTATCGACTAGCGGTTAGTGCTA`, “fitted relative affinity” read -0.136 z-score.
